Measurements gathered from unrelated publications.
Each line is one published result; not all experiments were run side by side. ± gives the spread as reported.
Organism: Staphylococcus aureus

Compound | assay | system | conditions | MIC
CCn1[c]([Au-]([Cl])([Cl])[Cl])[n+](CC)c2ccc(C(=O)OC)cc21 | broth dilution | MRSA DSM 11822 | 20 h, 37 °C | 1.6 ± 0.5 µM
CC1CCN(CCCN2/C(=C/c3cc(/C=C/c4c[nH]c5ccccc45)[n+](C)c4ccccc34)Sc3ccccc32)CC1 | microbial growth, broth dilution | ATCCBAA41 MRSA |  | 16 µg/mL
CC[C@H](C)[C@H](N)C1=N[C@H](C(=O)N[C@@H](CC(C)C)C(=O)N[C@H](CCC(=O)O)C(=O)N[C@H](C(=O)N[C@H]2CCCCNC(=O)[C@H](CC(N)=O)NC(=O)[C@@H](CC(=O)O)NC(=O)[C@H](Cc3c[nH]cn3)NC(=O)[C@@H](Cc3ccccc3)NC(=O)[C@H]([C@@H](C)CC)NC(=O)[C@@H](CCCN)NC2=O)[C@@H](C)CC)CS1 |  | USA300 MRSA, LB broth | 18 h, 37 °C, together with: 0.3 mM ZnSO4 | 2 µg/mL
CN(C)c1cc(CNCC(N)=O)c(O)c2c1C[C@H]1C[C@H]3[C@H](N(C)C)C(O)=C(C(N)=O)C(=O)[C@@]3(O)C(O)=C1C2=O |  | MRSA 5, Tet M ribosome protection |  | 16 µg/mL
Cc1cc([N+](=O)[O-])ccc1NC(=O)CSc1nc2ccccc2c(=O)n1-c1ccc(S(N)(=O)=O)cc1 |  | methicillin-resistant | 24 h, 37 °C | 5 µg/mL
CCCCCCCCCc1nc2ccccc2c(=O)n1OC | broth microdilution | RN6390B |  | > 100 µM
CN(C)c1cc(CN2CCc3ccccc3C2)c(O)c2c1C[C@H]1C[C@H]3[C@H](N(C)C)C(O)=C(C(N)=O)C(=O)[C@@]3(O)C(O)=C1C2=O |  | RN4250, Tet K efflux |  | 0.5 µg/mL
O=C1c2ccccc2C(=O)c2c1ccc1c2C(C(=O)Nc2ccc(Br)cc2)C(=O)C1c1ccccc1 (stereo not drawn) | microbial growth |  |  | > 100 µg/mL
CNC(CC(C)C)C(=O)NC1C(=O)NC(CC(N)=O)C(=O)NC2C(=O)NC3C(=O)NC(C(=O)NC(C(=O)NCCCNC(=N)N)c4cc(O)cc(O)c4-c4cc3ccc4O)C(O)c3ccc(c(Cl)c3)Oc3cc2cc(c3OC2OC(CO)C(O)C(O)C2OC2CC(C)(N)C(O)C(C)O2)Oc2ccc(cc2Cl)C1O (stereo not drawn) |  | Sensitive ATCC 25923 |  | 0.25 µg/mL
CN(C)c1cc(CNCc2ccncc2)c(O)c2c1C[C@H]1C[C@H]3[C@H](N(C)C)C(O)=C(C(N)=O)C(=O)[C@@]3(O)C(O)=C1C2=O |  | MRSA 5, Tet M ribosome protection |  | 4 µg/mL
Oc1c(Br)cc(Br)c2nc3cc(Br)ccc3nc12 | broth microdilution | MRSA 1707 | 16 h, 37 °C | 0.05 µM
CCCCc1ccc(N2C(=O)/C(=N\NC(=N)N)c3cc(C)ccc32)cc1 | microbial growth, broth dilution |  | 18 h | 3 µg/mL
CCCCN(CCCC)CC(O)COc1c2ccoc2c(OC)c2oc(CC)cc(=O)c12 (stereo not drawn) | microbial growth, broth dilution | NCTC4163 | 19 h | 256 µg/mL
CCCCO[C@H]1[C@H](O)[C@@H](N)[C@@H](O[C@H]2[C@H](O[C@@H]3O[C@H](CO)[C@@H](O[C@H]4O[C@@H](CN)[C@@H](O)[C@H](O)[C@H]4N)[C@H]3O)[C@@H](O)[C@H](N)C[C@@H]2N)O[C@@H]1CO | broth microdilution | MRSA isolate AG 042 |  | 16 µg/mL
CNC(CC(C)C)C(=O)NC1C(=O)NC(CC(N)=O)C(=O)NC2C(=O)NC3C(=O)NC(C(=O)NC(C(=O)O)c4cc(O)cc(O)c4-c4cc3ccc4O)C(O)c3ccc(c(Cl)c3)Oc3cc2cc(c3OC2OC(CO)C(O)C(O)C2OC2CC(C)(NC(=O)CCCCCCCCC[N+]3(C)CCOCC3)C(O)C(C)O2)Oc2ccc(cc2Cl)C1O (stereo not drawn) | agar dilution | MRSA clinical isolate MRSA4 |  | 128 µg/mL

For quick reference, copied from above:
Compound | assay | system | conditions | MIC
CN(C)c1cc(CNCC(N)=O)c(O)c2c1C[C@H]1C[C@H]3[C@H](N(C)C)C(O)=C(C(N)=O)C(=O)[C@@]3(O)C(O)=C1C2=O |  | MRSA 5, Tet M ribosome protection |  | 16 µg/mL
